Results gathered from unrelated publications.
Numbers after ± are the reported error.

`CCC1=C(CC)C2=[N+]3C1=Cc1c(CC)c(CC)c4[n]1[Ir-3]31([c]3n(C(C)C)cc[n+]3C(C)C)([c]3n(C(C)C)cc[n+]3C(C)C)[n]3c(c(CC)c(CC)c3=CC3=[N+]1C(=C4)C(CC)=C3CC)=C2.F[P-](F)(F)(F)(F)F` has a cellular uptake of 159 ± 29.5 µg iridium/g protein (NCI-H460; ICP-MS; 1 µM, 2 h).
`CC(=O)N[C@H](C(=O)N[C@H](C(=O)N[C@@H](CCCNC(=N)N)C(=O)N1Cc2ccccc2C[C@H]1C(=O)N[C@@H](Cc1ccccc1)C(N)=O)C1CCCCC1)C(C)C` has a cytokine level of 111 ± 61.7 pg/mL (human PBMC; Bio-Plex multiplex, refers to: VEGF; 250 µg/mL, 24 h).
`COc1ccc(-c2coc3c(CC=C(C)C)c(O)c(CC=C(C)C)c(O)c3c2=O)cc1O` gave a viability of 92.3% (SW480; cell growth or viability, MTT; 6.25 µg/mL).
`O=C(/C=C/c1ccccc1)c1ccccc1O` — result for cytotoxicity: “toxic” (K562 transfected; concentration not given, together with: TNF-alpha).
With `CC12CCCC(n3cc(C(=O)N4CCCC(N)C4)nn3)(C1)C1CC(C)(C)C1CC2` (centres unmarked) the viability was 95.4% (HT-29; 0.5 µM, 72 h, together with: NAC 2 mM pretreatment 8 h).
For `O=C(O)C1OC(Oc2ccccc2-c2cc(=O)c3ccccc3o2)C(O)C(O)C1O` (centres unmarked), “intracellular glucuronide concentration” read 58.1 ± 11.6 µM (HeLa-UGT1A9 cells; 15 µM aglycone loading, end of excretion).
`Cn1c(=O)c(=O)n(C)c2cc(S(=O)(=O)NNC(=S)Nc3ccccc3)ccc21` has an inhibition of 6.9% (hTERT-RPE1; cell viability, MTT; concentration not given).
`O=C(CCC(=O)OCCNC(=O)[C@@H](Cc1ccccc1)NC(=O)[C@@H](Cc1ccccc1)NC(=O)CCNc1ccc([N+](=O)[O-])c2nonc12)NCCS(=O)(=O)O` gave an intracellular concentration of 1.4 mM (HeLa; 200 µM, 24 h, after one PBS wash).
`O=C(O)C1OC(Oc2ccc3c(=O)cc(-c4ccccc4)oc3c2)C(O)C(O)C1O` (centres unmarked): “intracellular glucuronide concentration” 142 ± 22.2 µM (HeLa-UGT1A9 cells; 15 µM aglycone loading, end of excretion).
`O=c1[nH]cc(C(c2ccc(Cl)cc2)c2c[nH]c(=O)[nH]c2=O)c(=O)[nH]1`: cytotoxicity “not toxic” (Mo7e; 1 µg/mL).
For `OC(Cc1cc(-c2ccc(C(O)C(F)(F)F)s2)sc1-c1ccc(-c2sc(-c3ccc(C(O)C(F)(F)F)s3)cc2CC(O)C(F)(F)F)s1)C(F)(F)F` (centres unmarked), the cellular uptake was 5% (primary human fetal cortical neurons; LC-MS/MS; 4 µM, 30 min; relative to: applied).
Under cytotoxicity, `O=C(OCc1cccc(O)c1O)c1ccc(O)c(CO)c1` is recorded as “not toxic” (H9c2; 20 µM, 48 h).
Under “Papp apical to basolateral”, `CC1(C)CCC2(CO)C(=C3C=CC4[C@@]5(C)CCC(O)[C@@](C)(CO)C5CC[C@@]4(C)[C@]3(C)C[C@H]2O)C1` (some centres unmarked) is recorded as 5.18 ± 0.404 ×10⁻⁶ cm/s (Caco-2 monolayer; Caco-2 bidirectional transport; 10 µM, 3 h, 37 °C).
`CCC(=O)N(C)c1ccc(Cl)c(Cl)c1` — result for “cells with one aberration”: 0% (CHO-WBL; 0.032 mg/mL, 3 h, with S9 activation).
The IC50 of `O=C(Nc1ccc2c(c1)CN(c1ccc(Cl)cc1)C2=O)N1CCN(c2ccc(F)cc2)CC1` is reported as greater than 64 µM (primary peritoneal mouse macrophages; cytotoxicity; 5% fetal calf serum).
The viability of `CC(C)=CCc1cc(-c2coc3cc(O)c(CC=C(C)C)c(O)c3c2=O)ccc1O` is reported as 33.8% (SW480; cell growth or viability, MTT; 50 µg/mL).
`O=C1N=C(O)SC1=Cc1ccc(-c2cccc(C(F)(F)F)c2)o1` — result for “highest non-toxic concentration”: 50 µM (IL-2 activated human PBMC; CellTiter-Glo; 48 h).

Excerpt of the above:
With `CC12CCCC(n3cc(C(=O)N4CCCC(N)C4)nn3)(C1)C1CC(C)(C)C1CC2` (centres unmarked) the viability was 95.4% (HT-29; 0.5 µM, 72 h, together with: NAC 2 mM pretreatment 8 h).
For `O=C(O)C1OC(Oc2ccccc2-c2cc(=O)c3ccccc3o2)C(O)C(O)C1O` (centres unmarked), “intracellular glucuronide concentration” read 58.1 ± 11.6 µM (HeLa-UGT1A9 cells; 15 µM aglycone loading, end of excretion).
